Assay results from different studies.
Every numbered part comes from another study and shows a few of its results, in no order.

Sample 1
Target: RNA binding protein fox-1 homolog 2, RRM domain, GST-SBP tag (RBFOX2, Homo sapiens, UniProt O43251-10, residues 100-194)
Method: RNA Bind-n-Seq
Molecule type: RNA
Matrix: in vitro
Tested at: 365 nM
Setting: natural RNA segment, single round, ends assumed
Reference: no-protein control
Direction: higher = stronger binding
All sequences stand within: GGGAGUUCUACAGUCCGACGAUC … UGGAAUUCUCGGGUGCCAA
| Strand | RBNS enrichment (R) |
| --- | --- |
| UGAUGGUUGCGAGUGCAGGGACACUGGACAUAUGGGCUCAGUGCUGAGAGGUGGCAGAGCUGCGCUCCUGCCCACAGUGCUAGCCCAGGAAUCCUGGGGAGGCUGAGUAG | 0.684 |
| CUCCUGUUACAGCUUCCACACUCAGCCGGCUUGCUUCAGUAUUUUUGCUUCCUGUAUAUUCUUAUACAUGUUUUUGACUCCAGAAAAAUGACACCUUUAGACUGUUUCAG | 1.72 |
| CAGUUCAAACAUGUCUCCACUACCCUGUUAAGAGCAGCCUGGGAACGUACAGGCCAUCAAGACUAUUUAUUUAAAUACAAAAAAAGGGGAAAACACACACACGGAAAAAA | 0.381 |
| GCGGCCAGCAGCAGCUCUGCUCAGUCUUUAUUCCCACACCAAAGGGCGAGCAGGUGUGACAUUGGCUAAGGAAGUGUUUCCAGAGUGUGCGUCUCGGGUGACCCUUGCUG | 0.653 |
| UGACUGAAAUUGCAUCAGUGAUCAUAAUGAGGUUUGUUAAAACGAUAGCUAUAUUCAAAAUGUCUAUAUGUUUAUUUGGACUUUUGAGGUUAAAGACAGUCAUAUAAACG | 0.497 |

Sample 2
Target: Histone acetyltransferase KAT6A, winged helix 2, GST fusion (KAT6A, Homo sapiens, UniProt Q92794, residues 85-181)
Method: protein binding microarray
Molecule type: double-stranded DNA, one strand shown
Matrix: in vitro
Tested at: not given
Setting: 8-mer, flanks averaged, mean of 2 arrays, mostly near background
Reference: not given
Direction: higher = stronger binding
Construct (chain): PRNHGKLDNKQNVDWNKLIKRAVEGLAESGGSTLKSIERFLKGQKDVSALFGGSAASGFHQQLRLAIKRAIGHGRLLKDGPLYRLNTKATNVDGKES
| Strand | E-score |
| --- | --- |
| CTAATCAG | 0.133 |
| TGTTAACA | 0.00582 |
| CCTCGCGA | 0.0169 |
| CTTGTCCC | 0.161 |
| CTGCGGGA | 0.118 |
| GCTCTTCC | 0.127 |
| ACAGCCAA | 0.136 |

Sample 3
Target: Interferon regulatory factor 5, full length, phosphomimetic (IRF5, Homo sapiens, UniProt Q13568-2, residues 1-514, S451D/S453D/S456D/S462D)
Method: protein-binding microarray
Molecule type: double-stranded DNA, one strand shown
Matrix: in vitro
Tested at: 940 nM top
Setting: 60-bp whole probe
Together with: salmon DNA 0.4 mg/ml
Reference: random background probes
Direction: higher = stronger binding
All sequences stand within: GCCTAGCAC … GTGCTAGGTCTTGATTCGCTTGACGCTGCTG
| Strand | fitted relative affinity |
| --- | --- |
| TTAGGTCTCCTTATCCTTTG | 0.448 z-score |
| TTAGGACTTGGTCTCGGTTA | 3.11 z-score |
| AATCAACTTTTTTTAATTGA | 0.447 z-score |
| AAGTTTACCCATCTCCAGTA | 0.617 z-score |
| GAATCTCCCATTATATTTTA | 1.01 z-score |
| GACGGACTGGGTCTTGGGAC | -0.566 z-score |

Other studies, line by line
| Substance | target | assay | test system | conditions | how to read | measurement | result |
| --- | --- | --- | --- | --- | --- | --- | --- |
| PhoQ, residues 284 288 289 292 302 303 AEGLLW | PhoP, residues 12 14 15 18 19 SEGLL (Escherichia coli, UniProt P23836) | Sort-seq, item: YFP reporter | E. coli | PhoQ-PhoP variant library, together with: 10 µM Mg2+ | reference: high Mg2+ state, higher = stronger signaling | fold induction | 2.03 |
